Measured values of several laboratories.
Numbers after ± are the reported error.
CYP1A1: Cytochrome P450 1A1 (CYP1A1, Homo sapiens, UniProt P04798)
Chain of UniProt P04798 (whole entry, looked up): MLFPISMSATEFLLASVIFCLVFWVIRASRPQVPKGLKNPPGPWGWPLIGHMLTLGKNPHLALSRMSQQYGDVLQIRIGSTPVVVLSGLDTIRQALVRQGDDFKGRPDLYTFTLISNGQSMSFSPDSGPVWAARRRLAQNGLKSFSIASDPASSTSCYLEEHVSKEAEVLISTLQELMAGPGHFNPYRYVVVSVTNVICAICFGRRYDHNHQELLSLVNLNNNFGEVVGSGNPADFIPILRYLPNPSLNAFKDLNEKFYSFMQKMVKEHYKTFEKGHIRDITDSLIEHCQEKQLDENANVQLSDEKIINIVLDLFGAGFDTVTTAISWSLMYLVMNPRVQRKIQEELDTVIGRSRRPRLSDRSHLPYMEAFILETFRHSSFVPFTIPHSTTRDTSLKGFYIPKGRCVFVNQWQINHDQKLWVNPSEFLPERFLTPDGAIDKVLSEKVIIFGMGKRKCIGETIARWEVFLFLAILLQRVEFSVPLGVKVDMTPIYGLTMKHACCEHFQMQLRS
Ahr: Aryl hydrocarbon receptor (Ahr, Mus musculus, UniProt P30561)
Chain of UniProt P30561 (whole entry, looked up): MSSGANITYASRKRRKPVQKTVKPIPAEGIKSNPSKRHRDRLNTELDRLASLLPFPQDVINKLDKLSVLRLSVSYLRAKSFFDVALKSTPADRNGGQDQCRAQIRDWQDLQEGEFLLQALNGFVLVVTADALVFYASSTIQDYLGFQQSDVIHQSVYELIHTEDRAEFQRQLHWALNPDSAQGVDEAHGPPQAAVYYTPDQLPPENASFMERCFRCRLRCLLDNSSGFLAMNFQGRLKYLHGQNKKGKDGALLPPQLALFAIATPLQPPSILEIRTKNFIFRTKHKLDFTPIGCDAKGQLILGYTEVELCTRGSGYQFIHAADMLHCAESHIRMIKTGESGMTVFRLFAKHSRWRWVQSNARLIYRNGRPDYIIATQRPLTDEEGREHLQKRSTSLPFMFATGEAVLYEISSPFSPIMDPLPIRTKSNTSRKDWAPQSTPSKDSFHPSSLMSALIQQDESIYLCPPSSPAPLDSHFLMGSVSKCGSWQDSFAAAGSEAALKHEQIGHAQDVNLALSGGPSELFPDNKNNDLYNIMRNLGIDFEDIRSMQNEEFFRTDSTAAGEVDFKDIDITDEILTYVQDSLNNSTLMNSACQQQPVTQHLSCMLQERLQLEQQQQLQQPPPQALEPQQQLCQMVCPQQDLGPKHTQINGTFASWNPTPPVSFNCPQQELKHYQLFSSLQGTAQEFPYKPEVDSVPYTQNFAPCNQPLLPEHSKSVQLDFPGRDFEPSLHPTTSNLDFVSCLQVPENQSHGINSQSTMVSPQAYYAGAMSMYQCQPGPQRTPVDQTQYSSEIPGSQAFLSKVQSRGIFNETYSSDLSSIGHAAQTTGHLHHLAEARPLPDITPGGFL
CYP2B6: Cytochrome P450 2B6 (CYP2B6, Homo sapiens, UniProt P20813)
Chain of UniProt P20813 (whole entry, looked up): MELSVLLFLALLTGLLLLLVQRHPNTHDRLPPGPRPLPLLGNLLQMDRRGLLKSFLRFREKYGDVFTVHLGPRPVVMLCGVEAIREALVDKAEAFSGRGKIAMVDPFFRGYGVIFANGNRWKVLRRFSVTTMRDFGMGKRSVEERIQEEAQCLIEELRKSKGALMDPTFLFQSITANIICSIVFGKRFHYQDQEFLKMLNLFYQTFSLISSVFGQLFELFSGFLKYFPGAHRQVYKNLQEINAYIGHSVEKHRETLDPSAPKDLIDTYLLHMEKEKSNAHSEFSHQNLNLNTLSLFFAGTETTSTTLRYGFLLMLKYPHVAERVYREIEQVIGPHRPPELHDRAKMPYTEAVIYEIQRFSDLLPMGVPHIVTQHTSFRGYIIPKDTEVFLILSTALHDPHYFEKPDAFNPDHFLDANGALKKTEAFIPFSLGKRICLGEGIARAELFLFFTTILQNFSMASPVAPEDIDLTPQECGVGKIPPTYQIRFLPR
Abcb1a N83Q/N87Q/N90Q: ATP-dependent translocase ABCB1 (Abcb1a, Mus musculus, UniProt P21447, N83Q/N87Q/N90Q)
Chain of UniProt P21447 (whole entry, unmodified, looked up): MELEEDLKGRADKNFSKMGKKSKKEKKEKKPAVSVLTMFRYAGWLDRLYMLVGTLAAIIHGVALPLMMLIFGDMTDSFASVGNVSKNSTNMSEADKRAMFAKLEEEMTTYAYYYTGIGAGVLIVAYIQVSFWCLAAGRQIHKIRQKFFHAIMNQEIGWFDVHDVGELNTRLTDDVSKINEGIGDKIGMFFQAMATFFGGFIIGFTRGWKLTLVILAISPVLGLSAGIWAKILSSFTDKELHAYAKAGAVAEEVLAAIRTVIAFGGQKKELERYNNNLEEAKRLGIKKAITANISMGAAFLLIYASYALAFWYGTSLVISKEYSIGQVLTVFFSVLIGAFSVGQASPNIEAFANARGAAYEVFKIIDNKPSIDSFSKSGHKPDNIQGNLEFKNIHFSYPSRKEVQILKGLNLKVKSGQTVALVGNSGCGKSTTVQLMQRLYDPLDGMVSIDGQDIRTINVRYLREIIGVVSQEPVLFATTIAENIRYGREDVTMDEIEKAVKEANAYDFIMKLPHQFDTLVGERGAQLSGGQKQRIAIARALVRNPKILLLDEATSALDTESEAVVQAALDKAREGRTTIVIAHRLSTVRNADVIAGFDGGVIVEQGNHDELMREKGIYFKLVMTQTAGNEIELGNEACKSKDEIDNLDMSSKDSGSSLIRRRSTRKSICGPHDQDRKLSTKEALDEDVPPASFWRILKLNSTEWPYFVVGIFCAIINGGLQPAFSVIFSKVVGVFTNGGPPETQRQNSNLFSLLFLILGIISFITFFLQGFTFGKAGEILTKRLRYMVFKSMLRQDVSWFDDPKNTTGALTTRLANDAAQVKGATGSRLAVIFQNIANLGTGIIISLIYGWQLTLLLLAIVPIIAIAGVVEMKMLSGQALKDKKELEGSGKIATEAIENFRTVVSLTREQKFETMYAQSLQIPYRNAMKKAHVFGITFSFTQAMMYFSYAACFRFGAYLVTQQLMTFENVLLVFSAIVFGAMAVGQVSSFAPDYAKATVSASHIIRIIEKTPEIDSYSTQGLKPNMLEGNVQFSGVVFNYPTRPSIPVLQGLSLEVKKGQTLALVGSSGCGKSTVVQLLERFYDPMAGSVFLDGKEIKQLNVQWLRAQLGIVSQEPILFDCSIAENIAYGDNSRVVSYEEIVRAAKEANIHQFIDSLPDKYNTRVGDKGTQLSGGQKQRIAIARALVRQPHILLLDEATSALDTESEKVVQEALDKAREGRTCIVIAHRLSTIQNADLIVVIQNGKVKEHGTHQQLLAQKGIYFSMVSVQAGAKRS
KCNH2: Voltage-gated inwardly rectifying potassium channel KCNH2 (KCNH2, Homo sapiens, UniProt Q12809)
Chain of UniProt Q12809 (whole entry, looked up): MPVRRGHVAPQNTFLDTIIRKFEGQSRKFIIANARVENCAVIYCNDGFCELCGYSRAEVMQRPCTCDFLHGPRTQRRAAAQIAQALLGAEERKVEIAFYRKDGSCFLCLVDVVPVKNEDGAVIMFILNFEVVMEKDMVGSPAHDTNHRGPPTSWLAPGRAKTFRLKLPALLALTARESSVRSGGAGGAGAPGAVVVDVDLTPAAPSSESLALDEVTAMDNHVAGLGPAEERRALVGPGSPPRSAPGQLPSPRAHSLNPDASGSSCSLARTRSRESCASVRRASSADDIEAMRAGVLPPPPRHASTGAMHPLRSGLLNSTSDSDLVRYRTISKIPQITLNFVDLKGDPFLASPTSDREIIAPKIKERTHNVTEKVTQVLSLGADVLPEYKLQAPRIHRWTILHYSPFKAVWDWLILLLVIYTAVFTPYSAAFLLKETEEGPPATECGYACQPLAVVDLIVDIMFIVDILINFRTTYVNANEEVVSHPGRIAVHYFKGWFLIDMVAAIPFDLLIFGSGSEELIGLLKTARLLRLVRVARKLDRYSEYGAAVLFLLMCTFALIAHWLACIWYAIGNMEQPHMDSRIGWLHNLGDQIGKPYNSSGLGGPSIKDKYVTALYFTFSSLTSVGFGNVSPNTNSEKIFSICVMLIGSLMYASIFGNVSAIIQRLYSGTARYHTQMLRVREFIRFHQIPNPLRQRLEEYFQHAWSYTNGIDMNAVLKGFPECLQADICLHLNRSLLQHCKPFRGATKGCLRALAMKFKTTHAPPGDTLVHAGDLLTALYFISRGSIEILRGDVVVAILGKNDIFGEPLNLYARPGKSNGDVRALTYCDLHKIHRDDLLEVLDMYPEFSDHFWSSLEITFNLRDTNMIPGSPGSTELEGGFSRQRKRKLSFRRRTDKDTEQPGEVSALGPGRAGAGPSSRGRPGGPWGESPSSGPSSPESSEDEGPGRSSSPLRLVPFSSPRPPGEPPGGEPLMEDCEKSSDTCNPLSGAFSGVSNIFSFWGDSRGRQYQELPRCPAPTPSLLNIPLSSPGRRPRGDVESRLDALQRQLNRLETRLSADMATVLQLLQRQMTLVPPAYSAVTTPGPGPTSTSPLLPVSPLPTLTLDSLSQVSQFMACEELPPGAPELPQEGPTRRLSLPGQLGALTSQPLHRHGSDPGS
CYP2D6: Cytochrome P450 2D6 (CYP2D6, Homo sapiens, UniProt P10635)
Chain of UniProt P10635 (whole entry, looked up): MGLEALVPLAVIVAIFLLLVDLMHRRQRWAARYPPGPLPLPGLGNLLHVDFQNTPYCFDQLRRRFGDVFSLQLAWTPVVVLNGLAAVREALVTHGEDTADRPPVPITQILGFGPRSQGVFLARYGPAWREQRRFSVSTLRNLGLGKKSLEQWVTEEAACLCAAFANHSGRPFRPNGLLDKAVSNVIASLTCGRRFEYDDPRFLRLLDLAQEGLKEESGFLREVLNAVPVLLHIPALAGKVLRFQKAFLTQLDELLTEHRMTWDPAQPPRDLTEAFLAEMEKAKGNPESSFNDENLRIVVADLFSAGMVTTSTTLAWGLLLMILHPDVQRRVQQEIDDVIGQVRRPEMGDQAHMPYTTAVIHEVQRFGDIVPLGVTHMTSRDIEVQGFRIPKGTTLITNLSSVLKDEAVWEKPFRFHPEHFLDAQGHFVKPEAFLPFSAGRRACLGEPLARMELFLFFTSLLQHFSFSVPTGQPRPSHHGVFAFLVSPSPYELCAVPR

C#CCOc1ccc(-c2cc(=O)c3ccccc3o2)cc1
IC50 (CYP1A1; enzyme activity, inhibitor, fluorescence): 0.65 µM

Clc1ccc(-c2ccc(Cl)c(Cl)c2Cl)c(Cl)c1Cl
IC50 (Ahr; binding, competitor; in vitro expressed receptor, together with: [3H]TCDD): 6.31 µM

C#CCOc1cccc2oc(-c3ccccc3)cc(=O)c12
IC50 (CYP1A1; enzyme activity, inhibitor, fluorescence): 1.6 µM

O=C(O)C(F)(OC(F)(F)C(F)(F)C(F)(F)F)C(F)(F)F (stereo not drawn)
IC50 (CYP2B6; enzyme activity, inhibitor; Supersomes; together with: 7-ethoxy-4-trifluoromethylcoumarin substrate): > 100 µM

Clc1ccc(-c2c(Cl)c(Cl)cc(Cl)c2Cl)c(Cl)c1
IC50 (Abcb1a N83Q/N87Q/N90Q; ATPase activity, inhibitor; together with: 100 µM verapamil): 23.6 µM

Clc1ccc(-c2cc(Cl)c(Cl)c(Cl)c2)cc1Cl
IC50 (Ahr; binding, competitor; in vitro expressed receptor, together with: [3H]TCDD): 0.0126 µM

O=C(Cc1ccccc1Nc1c(Cl)cccc1Cl)Oc1ccc(-c2cc(=S)ss2)cc1
IC50 (CYP1A1; enzyme activity, inhibitor, fluorescence): 0.05 µM

O=C(O)C(F)(F)C(F)(F)C(F)(F)C(F)(F)C(F)(F)F
IC50 (CYP2B6; enzyme activity, inhibitor; Supersomes; together with: 7-ethoxy-4-trifluoromethylcoumarin substrate): > 100 µM

C=C(C)[C@@H]1CCC(CO)=C[C@H]1c1c(O)cc(CCCCC)cc1O
IC50 (CYP2B6; nicotine C-oxidation to cotinine, inhibitor; recombinant enzyme microsomes; together with: nicotine 500 µM): 1.2 ± 0.44 µM

C=C(C[C@@]12C[C@@H](C)C[C@@H](O1)[C@H]1O[C@]3(C[C@H]1O2)NC[C@H](C)C[C@@H]3C)[C@H]1O[C@@](O)([C@@H](O)[C@@H]2C[C@H]3O[C@@]4(CC[C@]5(CC(C)=C[C@@H](/C=C/CCC(=O)O)O5)O4)[C@H](C)C[C@H]3O2)[C@H](C)C[C@@H]1C
IC50 (KCNH2; ion current, inhibitor, thallium flux; HEK293 expressing hERG; 15 min): 5.1 µM

O=c1cc(-c2ccccc2)oc2ccc(O)cc12
IC50 (CYP1A1; enzyme activity, inhibitor, fluorescence): 12.4 µM

Clc1ccc(-c2ccc(Cl)c(Cl)c2)cc1Cl
IC50 (Ahr; binding, competitor; in vitro expressed receptor, together with: [3H]TCDD): 0.224 µM

O=c1cc(-c2ccccc2O)oc2ccccc12
IC50 (CYP1A1; enzyme activity, inhibitor, fluorescence): 17.7 µM

CN(C)c1ccc(C(=C2C=CC(=[N+](C)C)C=C2)c2ccccc2)cc1
IC50 (KCNH2; thallium influx, inhibitor, primary qHTS; hERG-transduced cells; two runs): 7.1 µM

Clc1cc(Cl)cc(-c2c(Cl)cc(Cl)c(Cl)c2Cl)c1
IC50 (Abcb1a N83Q/N87Q/N90Q; ATPase activity, inhibitor; together with: 100 µM verapamil): 43.2 µM

Clc1ccc(-c2ccc(Cl)c(Cl)c2Cl)cc1Cl
IC50 (Ahr; binding, competitor; in vitro expressed receptor, together with: [3H]TCDD): 5.01 µM

O=S(=O)(O)C(F)(F)C(F)(F)C(F)(F)C(F)(F)F
IC50 (Cytochrome P450 2E1 (CYP2E1, Homo sapiens, UniProt P05181); enzyme activity, inhibitor; Supersomes, together with: 7-MFC substrate): > 100 µM

Clc1cc(Cl)c(-c2c(Cl)cccc2Cl)c(Cl)c1Cl
IC50 (Abcb1a N83Q/N87Q/N90Q; ATPase activity, inhibitor; together with: 100 µM verapamil): 4.4 µM

C[C@H]1NC(C)(C)CO[C@]1(O)c1cccc(Cl)c1
IC50 (CYP2D6; enzyme activity, inhibitor): 5 µM

Cn1cc(C2=C(c3coc4ccc(F)cc34)C(=O)NC2=O)c2cc3c(cc21)OCO3
IC50 (KCNH2; ion current, inhibitor, thallium flux; U2OS overexpressing hERG): 3.8 µM

Clc1cccc(Cl)c1-c1c(Cl)c(Cl)c(Cl)c(Cl)c1Cl
IC50 (Abcb1a N83Q/N87Q/N90Q; ATPase activity, inhibitor; together with: 100 µM verapamil): 6.9 µM

C#CCOc1ccc2c(=O)cc(-c3ccccc3)oc2c1
IC50 (CYP1A1; enzyme activity, inhibitor, fluorescence): 0.51 µM

Clc1cc(-c2cc(Cl)c(Cl)c(Cl)c2)cc(Cl)c1Cl
IC50 (Abcb1a N83Q/N87Q/N90Q; ATPase activity, inhibitor; together with: 100 µM verapamil): 9.7 µM

COc1ccc([C@@H]2CC(=O)c3c(O)cc(O[C@@H]4O[C@H](CO[C@@H]5O[C@@H](C)[C@H](O)[C@@H](O)[C@H]5O)[C@@H](O)[C@H](O)[C@H]4O)cc3O2)cc1O
IC50 (Solute carrier organic anion transporter family member 2B1 (SLCO2B1, Homo sapiens, UniProt O94956); transporter uptake, inhibitor; pH 6): > 300 µM

Clc1cc(Cl)c(Cl)c(-c2c(Cl)cccc2Cl)c1Cl
IC50 (Abcb1a N83Q/N87Q/N90Q; ATPase activity, inhibitor; together with: 100 µM verapamil): 22 µM

C#CCOc1cccc(-c2cc(=O)c3ccccc3o2)c1
IC50 (Cytochrome P450 1A2 (CYP1A2, Homo sapiens, UniProt P05177); enzyme activity, inhibitor): 0.67 µM

C[C@H](NC(C)(C)C)[C@@H](O)c1cccc(Cl)c1
IC50 (CYP2D6; enzyme activity, inhibitor; human suspension hepatocytes; 30 min, protein-free buffer, media concentrations, together with: dextromethorphan 1 µM): 8.7 µM

CCCCCCCC[N+](CCCCCCCC)(CCCCCCCC)CCCCCCCC
IC50 (KCNH2; ion current, inhibitor, thallium influx): 0.24 µM

Clc1cc(Cl)c(-c2cc(Cl)c(Cl)c(Cl)c2)c(Cl)c1
IC50 (Abcb1a N83Q/N87Q/N90Q; ATPase activity, inhibitor; together with: 100 µM verapamil): 25.8 µM

O=S(=O)(O)C(F)(F)C(F)(F)C(F)(F)C(F)(F)C(F)(F)C(F)(F)C(F)(F)C(F)(F)F
IC50 (CYP2B6; enzyme activity, inhibitor, fluorescence): 30.6 µM

Excerpt of the above:
C=C(C)[C@@H]1CCC(CO)=C[C@H]1c1c(O)cc(CCCCC)cc1O
IC50 (CYP2B6; nicotine C-oxidation to cotinine, inhibitor; recombinant enzyme microsomes; together with: nicotine 500 µM): 1.2 ± 0.44 µM

O=C(O)C(F)(F)C(F)(F)C(F)(F)C(F)(F)C(F)(F)F
IC50 (CYP2B6; enzyme activity, inhibitor; Supersomes; together with: 7-ethoxy-4-trifluoromethylcoumarin substrate): > 100 µM
